# Assay results gathered from unrelated publications.
# Each numbered part is a random draw from the data of one study; scales do not carry over between parts.

# Study 1 — technique: RNA Bind-n-Seq; molecule type: RNA; medium: in vitro; tested at: 365 nM; baseline: no-protein control; reading: higher = stronger binding
# Target: RNA binding protein fox-1 homolog 2, RRM domain, GST-SBP tag (RBFOX2, Homo sapiens, UniProt O43251-10, residues 100-194)
# Setting: natural RNA segment, single round, ends assumed
# Shared flanks, not repeated: GGGAGUUCUACAGUCCGACGAUC … UGGAAUUCUCGGGUGCCAA
# Construct (chain): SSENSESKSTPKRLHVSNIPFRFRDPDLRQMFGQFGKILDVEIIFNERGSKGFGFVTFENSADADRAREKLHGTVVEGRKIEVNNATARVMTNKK
Sequence,RBNS enrichment (R)
GCUAUGGGGAAGGGAGGUUGUGCGGAUCUUGACUCUAGGGCAGAACAGAUCUAACCAUGCAUUGCUAGCUCUGCUCCCAGCAUCCCUUCCCCUUCUCUCCUCCUCUGCCU,0.507
UUAUCUUUUGGGUCUGUCCUCUCUGUUGCCUUUUUACAGCCAACUUUUCUAGACCUGUUUUGCUUUUGUAACUUGAAGAUAUUUAUUCUGGGUUUUGUAGCAUUUUUAUU,1.38
CCUUCACACCGCCACCAACUAACCAAGCUUGGCCUCUGACUCCCGUCUCUGUGCUUGCCCCCAUCUCAGGGACCAUGAUGUCUCAGUCACUCCACGCUCCCCACAGGCCA,0.964
GAAGAACCACGAGGCUCUGGCUGAGCCUCCCUCUGGAGUGCUAGUGUACCUGUGGGUCUGUCCUCUGCUCUGUGCAGAUGGGUUUUACUGUCUGCUGUGUUUUCUUACGA,0.29
ACGGUGAAACGGCCCUAGGAGGGUCGCUCUAGUUGAACUCUCCAGGCAGGACCUUAUGCUCAGAAAUCUUUGUAUAGUUUUAAAUUUUUGAGGAGUAUCUCUGCUCGGAA,0.722
AGUCUUGUGCUGUUCCCAGAACAGGACGACAGUGAAAAGAACACUCUUGACCCUACACUGAAGGCUGAAGGCAGAAGCCACAAGAGGCCUUGAGUGCCACCCCCAGGGAA,0.133
ACUUCGGGGACUCAGACGGGGGAGAUCCGGGCCAGUAGCUCCCAUGCCACCUGACUGACAGACGCCUGGGGACAGGCAUAUCCCUGCUCCCCGCAGAGAACACAGAACCC,0.556
CUUAAUUCAUAGCUGUCCUUGAUUUCAUAUUUGUUUGCAUUUAAUUUAUGUUUCUUUGGAUCCUCAUUGCCUCAAAGCAGCAUACUUAAUUUUUGUUUAUUUAUUGUGAG,4.5
AGAGACACCAGCCAGAGAAAACCCCCUCUAGAAGGAAUGUAUUUGUUGCUAAAUUUUGUAGCACUGUUUACAGUUUUCCUCCAUGUUAUUUAUGAAUUUUAUAUUCCGUG,0.467
CUGGUCCCCUCCCCCAUCCCCACCACUGAUAUCAUGGGGAGUAAUAGGACCAGAGCGGUAUCUCUGGCACCACACUAGGGACUAUCAGGUAAUAAAAGCUUUGACUCCCU,0.337
GGCAGCAGAGCCAUCGCAUCAUGUUUCCCAGGGCAACUUGAGGUCUGACUUUUGGCUCCCUCGCCCUAAGAGGCUCUUCCUCUCUUUUGCUCAUCCACCUUCACACCACU,1.25
CCUGAGUCAGUCACAUCUGGCAGCUGGCAGCAAGCUCUUCAUCCCUCCACAGUGAGGAAGCUGGCAGCGAGCAGGUAGACCUGGAGACUGCACGGCUGCUGAUUGGUCUU,0.472

# Study 2 — technique: RNA Bind-n-Seq; molecule type: RNA; medium: in vitro; tested at: 100 nM; baseline: input RNA pool; reading: higher = stronger binding
# Target: RING finger protein unkempt homolog, zinc fingers 1-6, SBP tag (UNK, Homo sapiens, UniProt Q9C0B0, residues 30-357)
# Sequence of UniProt Q9C0B0 (30-357, looked up): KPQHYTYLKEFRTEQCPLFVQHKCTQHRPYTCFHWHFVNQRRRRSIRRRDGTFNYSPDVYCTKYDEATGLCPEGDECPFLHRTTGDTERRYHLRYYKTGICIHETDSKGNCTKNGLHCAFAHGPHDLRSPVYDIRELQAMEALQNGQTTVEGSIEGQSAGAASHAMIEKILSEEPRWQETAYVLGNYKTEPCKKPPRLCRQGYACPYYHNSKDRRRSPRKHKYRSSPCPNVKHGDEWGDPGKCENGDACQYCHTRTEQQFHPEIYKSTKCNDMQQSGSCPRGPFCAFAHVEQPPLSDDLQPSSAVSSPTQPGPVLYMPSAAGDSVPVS
# Setting: RNA with constant flanks, vertebrate orthologous sites, ends assumed
# Shared flanks, not repeated: GGGAGUUCUACAGUCCGACGAUC … CAACAGAGGAUUGAGCAUCA
Sequence,bound/input enrichment [ratio]
CCUACAAUAAUGAAAACCUACAGGAAUUUUUUUAUUUUUCAUUUUCCCCUUAGGCAUAUUUAGUAUUUUUUCCCCAGGCAGAUCAUUCUGAGUGUGCGAGUGUGUGUGCACAUGUUACAA,3.29
CUCCCCACCACCAUCUCCUGUUUUUCUCAAGAAGUCCUGCUACCCCUCUUUUAGGCUGAGGUGUACAGAGUAAAACCAAUCGGAGGUUUAUAAUUUGGGGAAAAGUGUUUUUGAUUCUUU,0.501
CUACACCAGAUAUUUUAACUGUUUUAAAGUUACAAACAAGCUUUGCUUUUUGCAUUUAAAUAGAAUACUUUUAUAUUUUAAGUGCUUCAGAUGUGUGGAGGUGUUAGUUUGCUCUUAUAA,0.551
CAGUUUGUAUGUACAUUACUCACAUUCCUCCUAUUGUGUUUGGGGAAAACAAAGACAUUUUAGCCUUUUUUUAAGGUUCUUGAUUUAAUUUGAAAUGUUAUUUGGUUGCAUGAAGUUGCC,0.35
CUAUACGCUUUUAAAGAUAACUUCCUUGUAAGGCGCUUUGGCUAGUCAUAUAUUUACUCAUAUUUACAUAUCUGUGUUUUAUAAUAGCGGUGUAGAUUCAAAGGGGCCUCCUUUUGGGUU,0.584
UUCAACACCACUGGGUAGAAGGAUAAGGAUGGAGCAGCCAUCAUAGUUAGAAAGGAUCCAUCUUUGUCCCCAGACCAAGGUGGCAGCAGAUUUCUCCCUACCAGUCUAAAGAGCCUAGCC,0.278
UUCAUAAUCACGCUAAUCGUAAUCUGGAGACGUGUAACAUUGUGUAGCCUUUUGUAUAAAUAGACAGAUAGAAAUGGUCCGGUUAGUUUCCUUUUUAAUAUGCUUAAAAUAAGCAGGUGG,1.79
GCAGUGAAAAUACAGCCCUUCUCCCUGCCCCCUUUUCACUAGGAGAUACAAACGUUUCCGUAGAAGAGCAAUUAAACUCAAUAAAUUUAUCUUUUCAGGAUGAUCCAGAAUCCAGUACCA,1.41
AAGUCCCCUGGGCCGGGACAGAUUUUUUUUUAAUGUCUUGAAACUUAAACUCUGUGCUUAGAGGAGUCUGUAACCUUUUUGUCUUUUUUUUUUUUUUUUUUUUUUAAAGUAACCUCCACC,2.65
CAGUUUAGAUAUUCUUUUAAUUUUUUUUCUUUUCCCUUAAUCCUUUUUUAUUUUUAAAAAUAGUUCUUUUGUAAUGUGUUCAAAAUGGAAUUGAAAACUGGCACCUCUCUUGCAAACAUC,8.31
CACAUCUGGUGAUAUUUGGCCUGGCCUUUCAGCGUAUGAUAAUAGUCCCAGAUCGCCCCAUAGUCCUUCACCAAUCGCUACACCACCUAGUCAGAGUUCAUCUUGCUCUGAUGCCCCCAU,0.893

# Study 3 — technique: RNA Bind-n-Seq; molecule type: RNA; medium: in vitro; tested at: 200 nM; setting: whole 134-nt RNA, ends assumed; together with: 150 mM KCl; baseline: input library; reading: higher = stronger binding
# Target: Ras GTPase-activating protein-binding protein 1, full length (G3BP1, Homo sapiens, UniProt Q13283)
# Sequence of UniProt Q13283 (whole entry, looked up): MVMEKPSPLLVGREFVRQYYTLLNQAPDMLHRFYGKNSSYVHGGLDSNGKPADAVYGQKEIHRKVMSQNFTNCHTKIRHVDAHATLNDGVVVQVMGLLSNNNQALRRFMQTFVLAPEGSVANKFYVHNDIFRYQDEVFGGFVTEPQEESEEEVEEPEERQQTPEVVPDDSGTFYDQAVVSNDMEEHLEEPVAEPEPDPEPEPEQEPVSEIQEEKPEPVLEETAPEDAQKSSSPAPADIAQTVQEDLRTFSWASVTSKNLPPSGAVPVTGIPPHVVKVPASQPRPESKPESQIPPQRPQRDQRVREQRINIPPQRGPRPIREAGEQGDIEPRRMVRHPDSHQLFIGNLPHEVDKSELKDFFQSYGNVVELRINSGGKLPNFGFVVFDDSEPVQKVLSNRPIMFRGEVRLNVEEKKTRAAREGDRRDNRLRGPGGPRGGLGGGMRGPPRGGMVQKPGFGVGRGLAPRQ
# Shared flanks, not repeated: GGGAGUUCUACAGUCCGACGAUC … UGGAAUUCUCGGGUGUCAAGG
Sequence,log2 enrichment
AAGUCCUGUGCUACACAUCGUAUGUACCGAAUCGGCCCCCGGCCCCCGGGCCCCCGGAAAGUAUUAUGUUACGCCGUUCGGAUCUGCACU,-0.447
UGCAGCUGCUGGCCGCCUCCUAUGACCUGCACCGCUACUUCUACACGGGUGCCGAGAUCCUGGGCCUCAUCGACGAGAAGCACCGCGAGC,0.0615
ACCAUGCAGGUGGGCAUUUUUGGGAAGUGGGGCAAGGGGGGGAUAGGGAGGGGGGUAACACUUUGGGAACAGGUGGUCCCAGGUCGUUUC,1.28
ACCAUGCAGGUGGGCAUCUUUGGGAAGUGGGGCGAGGGGGGGAUAGGGAGGGGGGUAACACUUUGGGAACAGGUGGUCCCAGGUCGUUUC,1.48
UCCUGUGCUACACAUCGUAUGUACCGAAUCGGGUUUUUGGGAAAAAAAGGGAAAAAGGGAAAGUAUUAUGUUACGCCGUUCGGAUCUGCA,-0.507
UUGAUGCCCCAGAUGUGGAUGUUCAUGGCCCAGACUGGCACCUGAAGAUGCCUAAGAUGAAAAUGCCCAAGUUCAGCAUGCCUGGCUUCA,0.697
CCUGUGCUACACAUCGUAUGUACCGAAUCGGGGAAAAAAGGGGAAAAAAGGAAAAAAGGGGAAAGUAUUAUGUUACGCCGUUCGGAUCUG,-0.34
AGUCCUGUGCUACACAUCGUAUGUACCGAAUCGGGGAAAAAAAGGGGAGGGGUGGGGAAAGUAUUAUGUUACGCCGUUCGGAUCUGCACU,0.866
AUGGACUUGCACAUGAUGAACUGUGAACUUCUAGCCACAUGUAGUGCCCUUGGGUACUUGGAGGGAGACACUUACCAUAAGGAACCAGAU,-0.892
AAGUCCUGUGCUACACAUCGUAUGUACCGAAUCGGAAAAGGGGAAAAGGGGAAAAGGAAAGUAUUAUGUUACGCCGUUCGGAUCUGCACU,-0.513
UGGGAGGUGGAUUUUGUUUAUUUUUUUAGCUCAUUUCCAGGGGUGGGAAUUUUUUUUUAAUAUGUGUCUUGAAUAAAGUUGUUUUUGAAA,0.173
CAAGUCCUGUGCUACACAUCGUAUGUACCGAAUCGGUUUUUUUGGAAAGGAAAGGAAAGUAUUAUGUUACGCCGUUCGGAUCUGCACUUC,-1.03
CACAGACAACACGCACCCACACAGACACAGAGGGAAGGGGUUGGGAUGGGGACAGGGUGCACAGCAGGGCGGGGUAGGACCCCAGCCCUU,1.79
UCCUGUGCUACACAUCGUAUGUACCGAAUCAAACCCCCAAACCCCCCCAAAUUUUUAAAAAAGUAUUAUGUUACGCCGUUCGGAUCUGCA,0.038

# Single results of other studies
Substance,target,assay,system,conditions,scale,quantity,result
"PhoQ, residues 284 288 289 292 302 303 SIHLQL","PhoP, residues 12 14 15 18 19 VQALL (Escherichia coli, UniProt P23836)","Sort-seq, refers to: YFP reporter",E. coli,"PhoQ-PhoP variant library, together with: 10 µM Mg2+","baseline: high Mg2+ state, higher = stronger signaling",fold induction,6.83

# Repeated from above (study 3):
Sequence,log2 enrichment
AAGUCCUGUGCUACACAUCGUAUGUACCGAAUCGGCCCCCGGCCCCCGGGCCCCCGGAAAGUAUUAUGUUACGCCGUUCGGAUCUGCACU,-0.447
UGCAGCUGCUGGCCGCCUCCUAUGACCUGCACCGCUACUUCUACACGGGUGCCGAGAUCCUGGGCCUCAUCGACGAGAAGCACCGCGAGC,0.0615
ACCAUGCAGGUGGGCAUUUUUGGGAAGUGGGGCAAGGGGGGGAUAGGGAGGGGGGUAACACUUUGGGAACAGGUGGUCCCAGGUCGUUUC,1.28
